Published values of several laboratories.
Parts stem from different laboratories: compare values within a part only.

Sample 1
Target: PABPC1L2, full length, GST fusion (mouse, UniProt A0ABA7IW68)
Technique: RNAcompete
Form: RNA
Matrix: in vitro
Tested at: 20 nM
Setting: 7-mer, probes averaged, single round
Relative to: mean of 7-mers
Direction: higher = stronger binding
Residues (chain): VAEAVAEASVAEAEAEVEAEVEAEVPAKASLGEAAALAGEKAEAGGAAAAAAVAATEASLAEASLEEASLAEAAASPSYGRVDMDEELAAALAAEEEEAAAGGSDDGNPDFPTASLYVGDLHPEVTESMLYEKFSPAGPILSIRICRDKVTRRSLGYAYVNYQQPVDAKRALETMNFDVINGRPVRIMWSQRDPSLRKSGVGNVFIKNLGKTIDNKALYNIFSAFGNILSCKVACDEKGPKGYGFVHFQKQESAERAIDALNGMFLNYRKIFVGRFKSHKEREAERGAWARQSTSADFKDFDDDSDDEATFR
Strand	7-mer Z-score
GAUAUCC	-0.282
ACGCGCG	-0.358
UCACUUG	-0.0718
UCUCGCU	-0.492
AACUCGG	-0.0337
CACAGAC	-0.0228
UACGGAG	-0.0446
GCAUGUC	-0.104

Sample 2
Target: RNA binding protein fox-1 homolog 2, RRM domain, GST-SBP tag (RBFOX2, Homo sapiens, UniProt O43251-10, residues 100-194)
Technique: RNA Bind-n-Seq
Form: RNA
Matrix: in vitro
Tested at: 365 nM
Setting: natural RNA segment, single round, ends assumed
Relative to: no-protein control
Direction: higher = stronger binding
All sequences stand within: GGGAGUUCUACAGUCCGACGAUC … UGGAAUUCUCGGGUGCCAA
Strand	RBNS enrichment (R)
CUGUUCCUUUGGCAAGCUUUAUCAGUAGCUUAACAACAGAAGAGAAGAGUUCAAACAGAUGAUGUUUUUUCCAAAGAAAAACAAAUUGUUGACUCUCUUCCAUGCAUAUU	0.425
UCAAGAAGUAAGAGCUAAGUUCUAAGUUCAUGUUUGUAAAUUAAUACUUCAUUUGGUGCUGGUCUAUUUUGAUUUUGGGGGGUAAUCAGCAUUAUUCUUCAGAAGGGGAC	0.594
ACUGCCAAAAUACAUUGACCGUAGUAGCUGUUCAACUCCUAGUACUUAGAAAUACACGUAUGGUUAAUGUUCAGUCCAACAAACCACACACAGUAAAUGUUUAUUAAUAG	0.538
GGAAGAUCCACAAUCAAGUUCUCAAGUAACCACUUCAUAAUAUACUGCUGAAGGGCUUCUUCUUAUAGCAAGAACUCUGCACAGCAACUGCCUGGAUGUGUUUGAUUUUU	0.563
GUGCAUGCUGCUUCCGACACUGGCGCUGAGAUCCCUCCCCGAGGGGCUCUGUCUCUGCCUUGACCUCCUGGGUCAAGUCCCUGACCUCAGGAUACCUGCUGUCCACCCAA	6.8
UUUUCUUCAUUCAUUUGGAACCUUAUUUUCGCAAAAAACCUAGCUGGAAUAAUAAUGCCAUAUUGUAUUUUGCACACUGCUUUAUUUUCUAGAGGCUCUGGGAGCAAAUU	0.552
GAAGACAAGAGCUCACCCACUGUGCCUCCCAGCCCAUUCCCUGCCCCCUCAAAGCCUUCAGCCACCUCCGCCACUCAGGAACUGGAUAGACUGAUGGCCUCGCUCUCUGA	0.624
GGCAUUCCCAGGGGCUCCUGUCCAGCUGUCUCUGUCUGGGAAUGAUCUAACCUGGGUUGAGCCUCCUCUCUGCUCUGCCACCGAAAUAAACGUUGAAUUUGGAGUUUGUA	1.1

Sample 3
Target: Phosphate system positive regulatory protein PHO4, full length, GST-tagged (PHO4, Saccharomyces cerevisiae, UniProt P07270, residues 1-312)
Technique: competition protein-binding microarray
Form: double-stranded DNA, one strand shown
Matrix: in vitro
Tested at: 2 µM
Setting: whole 60-bp probe, lowest competitor level
Added: Cbf1 competitor, 0.05 µM
Direction: higher = stronger binding
All sequences stand within: … GTCTTGATTCGCTTGACGCTGCTG
Target sequence (chain): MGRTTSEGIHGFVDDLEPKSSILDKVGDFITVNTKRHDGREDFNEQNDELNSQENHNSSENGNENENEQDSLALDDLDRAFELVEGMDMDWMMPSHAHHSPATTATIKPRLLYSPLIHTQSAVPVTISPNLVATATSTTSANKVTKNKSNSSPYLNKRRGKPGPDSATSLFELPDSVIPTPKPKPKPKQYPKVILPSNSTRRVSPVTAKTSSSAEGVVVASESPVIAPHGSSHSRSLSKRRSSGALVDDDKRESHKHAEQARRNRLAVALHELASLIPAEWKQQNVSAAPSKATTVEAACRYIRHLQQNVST
Strand	fluorescence intensity [a.u.]
CGTCCTAGTGATTGGCTTGTGGGTGCCATGAGGAAG	7330
CGTCCTAGTGATTGTGTGGTGGGTGCCATGAGGAAG	7820
TGCCTCAGTTATGAGCACGTGCTCTGACCTGGCTGC	18500
CTAACGAAGGTTTTTCACGTGACTTACAAGCCAAGT	10300
CCGAACCTTTGAGCGGTCATGACAACTTCAATTCTT	2940
CGGGGTTAAGTTTGTGGGGTGGGTGGCTTGCAGCAG	5450
CTAACGAAGGTTTGTTGTGTGGGTGACAAGCCAAGT	4210
AAAGCGGTAATTTGTCTCGTGGGTGCAGATATCTAT	9890

Other studies, line by line
Sequence	target	test	test system	how to read	endpoint	value
GKLDPTNTL	HLA class I histocompatibility antigen, A alpha chain, allele A*80:01 (Homo sapiens, UniProt P04439)	peptide-MHC binding	peptide	direction not given	z-score of log IC50	0.38
